Assay results pooled from the literature.
Protocols differ between the studies behind these lines. ± gives the spread as reported.
Cell line: HEK-293T

CCCCCCCCCCCCSCC(COCC(O)C[N+](C)(C)CCN)SCCCCCCCCCCCC (centres unmarked) — IC50 (cell growth or viability, MTT; 24 h): 107 µM
Cc1cc(C)nc(SCC(=O)Nc2ncc(Cc3cccc(OCc4cn(-c5ccc(Cl)cc5)nn4)c3)s2)n1 — inhibition (cell viability, MTS; 10 µM): 32.1 ± 7.6%
CSc1ccc(NC(=O)c2cnn(-c3ccc([N+](=O)[O-])cc3)c2C(F)(F)F)cc1 — inhibition (cell viability, MTS; 50 µM, 72 h): 13.1 ± 1.08%
Cc1cc(C)nc(SCC(=O)Nc2ncc(Cc3cccc4ccccc34)s2)n1 — EC50 (cell growth or viability, MTT; 72 h): 84.5 to 109 µM
C=CCOCO[C@H](C(=O)NC[C@@H]1C[C@@H](OC)C(C)(C)[C@@H](C[C@@H](COC)OC)O1)[C@@]1(OC)CC(=C)[C@@H](C)[C@@H](C)O1 — IC50 (cell viability, sulforhodamine B; 48 h, 37 °C, with: H2O2 100 µM): 3.49 ± 0.084 µM
O=S(=O)(c1ccc2c(c1)OCO2)n1cc(CCCCN2CCC(=C(c3ccc(F)c(F)c3)c3ccc(F)c(F)c3)CC2)nn1 — IC50 (cell growth or viability, ATP luminescence; 48 h): 11.1 µM
CC(C)(C)c1ccc(NC(=O)c2cnn(-c3ccc([N+](=O)[O-])cc3)c2C(F)(F)F)cc1 — inhibition (cell viability, MTS; 50 µM, 72 h): 19.7 ± 2.75%
CC(=S)NCCCC[C@H](NC(=O)OCc1ccccc1)C(=O)N[C@@H](Cc1c[nH]c2ccccc12)C(=O)NC(C)C — EC50 (cell growth or viability, MTT; 72 h): 30.8 to 45.6 µM
CCCCCCCCCCCCSCC(COCC(O)C[N+](C)(C)C)SCCCCCCCCCCCC (centres unmarked) — IC50 (cell growth or viability, MTT; 24 h): 107 µM
Cc1cc(C)nc(SCC(=O)Nc2ncc(Cc3cccc4ccccc34)s2)n1 — inhibition (cell viability, MTS; 10 µM): 18.8 ± 1.6%
CCCCCCCCCCCCCC(=S)NCCCC[C@H](NC(=O)OCc1ccccc1)C(=O)Nc1ccccc1 — EC50 (cell growth or viability, MTT; 72 h): 12.4 to 35.9 µM
